Results from different studies.
Several values in a cell are separate wells, animals, samples, runs or records. ± gives the spread as reported.
Sequence of UniProt Q9UHI6 (whole entry, looked up): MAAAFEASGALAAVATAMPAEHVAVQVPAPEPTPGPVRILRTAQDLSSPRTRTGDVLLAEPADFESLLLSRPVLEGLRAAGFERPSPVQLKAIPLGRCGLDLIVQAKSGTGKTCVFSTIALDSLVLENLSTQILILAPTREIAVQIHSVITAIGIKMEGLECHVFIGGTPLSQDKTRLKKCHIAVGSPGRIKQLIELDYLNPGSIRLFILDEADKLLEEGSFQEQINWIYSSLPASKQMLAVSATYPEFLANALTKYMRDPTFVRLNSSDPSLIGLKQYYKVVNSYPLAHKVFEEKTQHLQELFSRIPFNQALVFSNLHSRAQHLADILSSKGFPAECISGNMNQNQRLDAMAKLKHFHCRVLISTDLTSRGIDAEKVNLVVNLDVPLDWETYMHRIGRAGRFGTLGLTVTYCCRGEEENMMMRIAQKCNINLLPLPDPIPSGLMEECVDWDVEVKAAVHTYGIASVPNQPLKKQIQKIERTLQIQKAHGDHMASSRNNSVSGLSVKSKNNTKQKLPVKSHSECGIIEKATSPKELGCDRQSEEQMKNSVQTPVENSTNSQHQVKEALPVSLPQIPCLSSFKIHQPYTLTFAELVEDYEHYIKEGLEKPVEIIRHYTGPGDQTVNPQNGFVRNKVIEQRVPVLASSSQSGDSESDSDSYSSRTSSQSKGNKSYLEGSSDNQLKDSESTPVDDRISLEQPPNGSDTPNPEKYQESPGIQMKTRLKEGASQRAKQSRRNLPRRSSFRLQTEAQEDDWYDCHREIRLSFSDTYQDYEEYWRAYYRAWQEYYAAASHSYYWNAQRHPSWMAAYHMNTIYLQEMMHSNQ

With `Cn1c(=O)ccc2ccc(F)c(CCNC[C@H]3CN(c4ccc5c(n4)NC(=O)CO5)C(=O)O3)c21` the IC50 was greater than 120 µM (human DNA topoisomerase II; decatenation activity, inhibitor).
`Cn1cc(C2=C(c3cn(C4CCN(Cc5ccccn5)CC4)c4ccccc34)C(=O)NC2=O)c2ccccc21` gave an inhibition of 18.5% (NLRP3 inflammasome (mouse); mouse BMDM; 10 µM).
`CC(C)CC(=O)OC[C@H]1O[C@@](C#N)(c2ccc3c(N)ncnn23)[C@H](O)[C@@H]1O` gave an inhibition of 13% (NMDA receptor Polyamine site (rat); 20 µM).
Under “pathway fold enrichment”, `Nc1ncnc2c1ncn2[C@@H]1O[C@@H]2COP(=O)(O)O[C@H]3[C@@H](O)[C@H](n4cnc5c(=O)[nH]cnc54)O[C@@H]3COP(=O)(O)O[C@H]2[C@H]1O` is recorded as 15 (HFF-1; RNA sequencing, measured: Reactome R-HSA-5627117; downregulated pathway; baseline: Zika virus alone).
`CN1C(=O)Cc2ccc(F)c(CCNC[C@H]3CN(c4ccc5c(n4)NC(=O)CO5)C(=O)O3)c21` gave an IC50 of greater than 120 µM (human DNA topoisomerase II; decatenation activity, inhibitor).
`C[C@H](C(=O)N[C@H]1COc2ccccc2[C@@H]1S(C)(=O)=O)c1ccc(F)cc1` gave an inhibition of -1% (NMDA receptor, rat, Agonism site; binding; 10 µM, Eurofins selectivity panel).
`O=C(N[C@H](CO)[C@H](O)c1ccc([N+](=O)[O-])cc1)C(Cl)Cl` gave an IC50 of 0.97 ± 0.06 µM (human cytochrome c oxidase subunit I; measured: cytochrome c oxidase subunit I; HepG2; 120 h).
`c1ccc(C(NCCNC(c2ccccc2)c2ccccc2)c2ccccc2)cc1` gave an inhibition of 4% (5-HT1 receptor, rat; binding; 10 µM, Eurofins selectivity panel).
For `COc1c(CCC[P+](c2ccccc2)(c2ccccc2)c2ccccc2)cc2c(c1OC)OCO2.[I-]`, the GI50 was -5.8 log M (OVCAR-4; SRB).
The inhibition of `O=C(Nc1cccnn1)N1CCC(=Cc2cccc(Oc3ccc(C(F)(F)F)cn3)c2)CC1` is reported as 17% and 20% (PDGF receptor; concentration not given).
For `Cn1cccc1-c1cccnc1`, the inhibition was -17.8% (sigma receptor 1; radioligand binding; 50 µM).
`CCCN1CCO[C@@H]2c3cc(O)ccc3OC[C@H]21` gave an EC50 of 0.065 ± 0.012 µM (dopamine D2-like autoreceptors; inhibition of dopamine release, agonist, fast-scan cyclic voltammetry; Mus musculus, nucleus accumbens shell slice; single pulse stimulation).
The inhibition of `CN1CCN(C)/C(=N/c2ccc([N+](=O)[O-])cc2C(=O)Nc2ccccc2)C1` is reported as 0% (mouse phorbol ester receptor; radioligand binding; 10 µM).
With `CCc1c2c(nc3ccc(OC(=O)N4CCC(N5CCCCC5)CC4)cc13)-c1cc3c(c(=O)n1C2)COC(=O)[C@]3(O)CC.Cl.O.O.O` the maximum inhibition was 0% (human coronavirus OC43; virus-induced cell killing; MRC-5; maximum over 10 doses).
`NCCc1ccc(O)cc1` gave a ΔTm of 7.3 °C (SAR11_0271 protein (Candidatus Pelagibacter sp.); thermal stabilisation, differential scanning fluorimetry).
The IC50 of `Cn1c(=O)cnc2ccc(F)c(CCNC[C@H]3CN(c4cnc5c(n4)NC(=O)CO5)C(=O)O3)c21` is reported as greater than 90 µM (human DNA topoisomerase II; decatenation activity, inhibitor).
Under “log2 fold change”, `CC[C@H](C)[C@@H]1NC(=O)[C@@H]2CCCN2C(=O)[C@H](CC(C)C)NC(=O)[C@H](CC(C)C)NC(=O)CNC(=O)[C@@H](NC(=O)[C@@H](NC(=O)[C@H](CC(=O)O)NC(=O)CNC(=O)[C@@H](NC(=O)[C@H](C)NC(=O)CNC(=O)[C@H](CCCCN)NC(=O)[C@H](CC(C)C)NC(=O)[C@H](CC(C)C)NC(=O)[C@H](CCCCN)NC(=O)CNC(=O)[C@@H](NC(=O)[C@@H](N)CC(C)C)C(C)C)C(C)C)C(C)C)CSSC[C@@H](C(=O)O)NC1=O` is recorded as -1.41 (RNA-seq, measured: Gm13889 mRNA; mouse traumatic brain injury, frontal cortex and hippocampus; dose not given; baseline: TBI plus compound vs TBI).
For `CCN(CC)c1ccn2c(=O)n(CCOC(=O)NCc3cccc(-c4c[nH]cn4)c3)c(=O)nc2c1`, kinetic stabilization read “inactive” (human transthyretin WIL* T46L/F49Y, fluorescein-labelled; fluorescence polarization).
`COc1cc2c(Oc3ccc4[nH]c(C)cc4c3F)ccnc2cc1OCC1(N)CC1` gave a Thrombocytopenia incidence of 0% (paediatric recurrent refractory sarcoma; 8 mg).
`Cn1c(=O)ccc2ccc(F)c(CCNC[C@H]3CN(c4cnc5c(n4)NC(=O)CO5)C(=O)O3)c21` has an IC50 of greater than 120 µM (human DNA topoisomerase II; decatenation activity, inhibitor).
The IC50 of `NC(=O)c1nc(F)c[nH]c1=O` is reported as greater than 400 µM (human cytochrome c oxidase subunit I; measured: cytochrome c oxidase subunit I; HepG2; 120 h).
`C[N+](C)(C)CCOP(=O)(O)O` has a ΔTm of 6.71 and 2.79 (SAR11_0797 Candidatus Pelagibacter ubique; differential scanning fluorimetry; concentration not given, unit not given; higher = stronger binding).
`O=C(Nc1cccnn1)N1CCN([C@@H]2CCOc3cc(C(F)(F)F)ccc32)CC1` gave an inhibition of 2% (androgen receptor (human); binding; 20 µM).
For `COc1cc(Nc2ncc(F)c(Nc3ccc4c(n3)NC(=O)C(C)(C)O4)n2)cc(OC)c1OC`, the IC50 was greater than 10 µM (Proteasome).
With `COc1cc(C(=O)N2CC[C@@H](O)[C@@H](N)C2)cc2nc(-c3cc4ccccc4n3CC3CC3)n(C)c12` the L-arginine level was roughly 1.1 fold (human PAD4; inhibitor; neutrophils from hyperglycemic patients; 10 µM, 72 h; baseline: untreated).
For `CC(C)(O)C(=O)Nc1ccc([N+](=O)[O-])c(C(F)(F)F)c1`, “AUC agonist score” read 0.00113 (androgen receptor pathway; agonist; concentration not given; direction not given).
`CC[C@H](C)[C@H](NC(=O)[C@H](Cc1ccccc1)NC(=O)[C@H](CCC(=O)O)NC(=O)[C@H](CCCNC(=N)N)NC(=O)[C@H](C)NC(=O)[C@H](C)NC(=O)[C@H](CCC(N)=O)NC(=O)[C@H](CCC(=O)O)NC(=O)[C@H](CCC(=O)O)NC(=O)[C@H](CC(C)C)NC(=O)[C@H](Cc1ccc(O)cc1)NC(=O)[C@H](CO)NC(=O)[C@H](CO)NC(=O)[C@@H](NC(=O)[C@H](CC(=O)O)NC(=O)[C@H](CO)NC(=O)[C@@H](NC(=O)[C@H](Cc1ccccc1)NC(=O)[C@@H](NC(=O)CNC(=O)[C@H](CCC(=O)O)NC(=O)[C@H](C)NC(=O)CCc1c[nH]cn1)[C@@H](C)O)[C@@H](C)O)C(C)C)C(=O)N[C@@H](C)C(=O)N[C@@H](Cc1c[nH]c2ccccc12)C(=O)N[C@@H](CC(C)C)C(=O)N[C@H](C(=O)N[C@@H](CCCNC(=N)N)C(=O)NCC(=O)N[C@@H](CCCNC(=N)N)C(=O)N[C@@H](CCCCNC(=O)COCCOCCNC(=O)COCCOCCNC(=O)CC[C@H](NC(=O)CCCCCCCCCCCCCCCCC(=O)O)C(=O)O)C(=O)NCC(=O)NCC(=O)N[C@@H](CO)C(=O)N[C@@H](CCCCNc1c(NCCCCCN(O)C(=O)CCC(=O)NCCCCCN(O)C(=O)CCC(=O)NCCCCCN(O)C(C)=O)c(=O)c1=O)C(=O)O)C(C)C` [zirconium-89 labelled] gave a tissue uptake of 0.12 %ID/g (rat, intestine; iv, 3 nmol/kg, 168 h, ex vivo).
For `CC[C@H]1CN2CC[C@H]1C[C@@H]2[C@@H](O)c1ccnc2ccc(OC)cc12`, the inhibition was -33.2% (Nedd8-cullin1 interaction; neddylation, AlphaScreen; 100 µM).
For `Cc1cc2c(C(C)C)c(O)c(O)c(C=O)c2c(O)c1-c1c(C)cc2c(C(C)C)c(O)c(O)c(C=O)c2c1O`, the maximum inhibition was 0% (human coronavirus OC43; virus-induced cell killing; MRC-5; maximum over 10 doses).
The GI50 of `COc1cc(CCC[P+](c2ccccc2)(c2ccccc2)c2ccccc2)c(OC)c2c1OCO2.[I-]` is reported as -6.38 log M (T47D; SRB).
With `CC(C)[C@@]1(NC(=O)[C@@H]2C[C@@H]3c4cccc5[nH]cc(c45)C[C@H]3N(C)C2)O[C@@]2(O)[C@@H]3CCCN3C(=O)[C@H](Cc3ccccc3)N2C1=O.CS(=O)(=O)O` the inhibition was 17% (Nedd8-cullin1 interaction; neddylation, AlphaScreen; 100 µM).
`NCCc1ccccc1` gave a ΔTm of 8.1 °C (SAR11_0271 protein (Candidatus Pelagibacter sp.); thermal stabilisation, differential scanning fluorimetry).
The relative abundance of `C[C@H]1CN(c2n[nH]c3nc(N[C@H]4CC[C@H](NS(=O)(=O)CCC(F)(F)F)CC4)ncc23)CCO1` is reported as 1.06 (DDX20 (Homo sapiens, UniProt Q9UHI6); inhibitor, Kinobeads competition profiling; 0.032 µM; baseline: vehicle).

Repeated from above:
The inhibition of `CN1CCN(C)/C(=N/c2ccc([N+](=O)[O-])cc2C(=O)Nc2ccccc2)C1` is reported as 0% (mouse phorbol ester receptor; radioligand binding; 10 µM).
For `Cc1cc2c(C(C)C)c(O)c(O)c(C=O)c2c(O)c1-c1c(C)cc2c(C(C)C)c(O)c(O)c(C=O)c2c1O`, the maximum inhibition was 0% (human coronavirus OC43; virus-induced cell killing; MRC-5; maximum over 10 doses).
